Measured values of several laboratories.
Several values in a cell are separate wells, animals, samples, runs or records. ± gives the spread as reported.
Target: D(3) dopamine receptor (DRD3, Homo sapiens, UniProt P35462)
UniProt P35462, sequence (whole entry, looked up): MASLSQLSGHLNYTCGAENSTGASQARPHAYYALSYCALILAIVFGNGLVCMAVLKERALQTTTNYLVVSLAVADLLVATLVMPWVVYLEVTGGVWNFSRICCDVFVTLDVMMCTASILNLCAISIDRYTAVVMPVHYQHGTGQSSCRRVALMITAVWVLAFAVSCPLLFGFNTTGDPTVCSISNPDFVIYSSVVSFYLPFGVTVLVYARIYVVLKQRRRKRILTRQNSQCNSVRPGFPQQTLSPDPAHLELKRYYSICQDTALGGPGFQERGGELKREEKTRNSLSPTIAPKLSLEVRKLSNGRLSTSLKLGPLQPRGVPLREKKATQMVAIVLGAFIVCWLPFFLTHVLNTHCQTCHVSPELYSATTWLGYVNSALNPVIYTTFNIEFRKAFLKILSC

| SMILES | test | system | conditions | endpoint | result |
| --- | --- | --- | --- | --- | --- |
| CCc1c(Cl)cccc1N1CCN(C[C@@H](F)CCNC(=O)c2cc3ccccc3[nH]2)CC1 | mitogenesis, agonist, [3H]thymidine incorporation | CHO cells expressing D3 receptor |  | EC50 | 0.0076 ± 0.0039 µM |
| CN(C)[C@@H](CNC(=O)NC[C@H]1Cc2ccccc21)Cc1ccccc1 | ligand displacement, radioligand |  | cell membranes | Ki | 5.4 µM |
| Cc1cccc(NC(=O)CN2CCC(c3ccccc3)CC2)c1 | cell growth or viability, thymidine uptake |  |  | EC50 | > 10 µM |
| Clc1ccc(-n2cc(CNC[C@@H]3CCCOC3)nn2)c(Cl)c1 | ligand displacement, radioligand |  | cell membranes | Ki | > 10 µM |
| Cc1cc2c(c(O)c1O)C(=O)c1c(O)cc(O)cc1C2=O | cAMP, agonist, TR-FRET |  |  | EC50 | 56.8 µM |
| Cc1ccc(C(=O)NC[C@@H](C)N2CCCC2)cc1I | ligand displacement, radioligand |  | cell membranes | Ki | > 10 µM |
| CCn1c2ccccc2c2cc(CNCCCn3ccnc3)ccc21 | cell-free assay |  |  | Ki | 0.685 µM |
| CC1(C)C2=C3C=C4C5=[N+](CCC4OC3CCN2c2ccc(S(=O)(=O)[O-])cc21)c1ccc(C(=O)NCCCCOc2ccc(C(=O)CCCN3CCC(O)(c4ccc(Cl)cc4)CC3)cc2)cc1C5(C)C (stereo not shown) | ligand displacement, radioligand |  | cell membranes | Ki | 0.068 µM |
| COc1ccc(-c2csc3ncnc(NCCCN4CCN(c5ccccc5)CC4)c23)cc1 | cell-free assay |  |  | Ki | 3.07 µM |
| NC(CO)CCc1ccccc1Cl (racemic) | GTPγS binding, agonist, radiometric |  | cell membranes | EC50 | 3.5 µM and 3.46 µM |

Repeated from above:
| SMILES | test | system | conditions | endpoint | result |
| --- | --- | --- | --- | --- | --- |
| COc1ccc(-c2csc3ncnc(NCCCN4CCN(c5ccccc5)CC4)c23)cc1 | cell-free assay |  |  | Ki | 3.07 µM |
